Results of several laboratories.
A part holds a random share of what one study measured.

Set 1
Target: Prothrombin, mature alpha-thrombin (F2, Homo sapiens, UniProt P00734)
Method: aptamer microarray, sandwich
Form: DNA with 2'F-ANA
Medium: in vitro
Concentration: 200 nM
Notes: whole 15-mer aptamer, many near background
Together with: Cy3 exosite-II aptamer, 400 nM
Reading: higher = stronger binding
Sequence: GGTTGGTGTGGTTGG
Modification	mean fluorescence intensity [a.u.]
2'F-ANA at 3 4 8 10 11 14 15	186
2'F-ANA at 1 2 6 7 8 10 13 14	46.8
2'F-ANA at 2 4 5 6 9 10 11 13 15	53.1
2'F-ANA at 1 3 6 9 10 12 14	63.3
2'F-ANA at 1 6 8 9 11 14	56.4
2'F-ANA at 1 4 6 8 10	73
2'F-ANA at 1 8 10 11 12	64.4
2'F-ANA at 2 4 5 9 10 11 12 14 15	49.9
2'F-ANA at 2 4 5 7 8 11 12 13	82.9
2'F-ANA at 4 6 7 8 9 10 12 13	94.3
2'F-ANA at 2 5 7 8 10 11 14 15	92
2'F-ANA at 1 6 7 8 12 13 14	73.5
2'F-ANA at 6 11 14 15	161
2'F-ANA at 1 2 4 7 8 14	63.3
2'F-ANA at 2 3 5 6 7 10 11 13	46.8
2'F-ANA at 1 5 6 7 8 9 11 12 13 15	73.5
2'F-ANA at 1 3 5 7 10 11	46.1
2'F-ANA at 1 3 5 6 9 10 11 14	48.9
2'F-ANA at 1 2 5 6 8 9 10 13 15	48.1
2'F-ANA at 1 2 3 8 9 12	516
2'F-ANA at 8 10 12 13 15	194
2'F-ANA at 3 4 6 7	708
2'F-ANA at 2 5 8 10 12 13 14	63
2'F-ANA at 2 7 9 12	793
2'F-ANA at 2 3 5 8 9 11 14 15	51.1

Set 2
Target: RNA binding protein fox-1 homolog 2, RRM domain, GST-SBP tag (RBFOX2, Homo sapiens, UniProt O43251-10, residues 100-194)
Method: RNA Bind-n-Seq
Form: RNA
Medium: in vitro
Concentration: 365 nM
Notes: natural RNA segment, single round, ends assumed
Reference: no-protein control
Reading: higher = stronger binding
Constant ends, left off below: GGGAGUUCUACAGUCCGACGAUC … UGGAAUUCUCGGGUGCCAA
Target sequence (chain): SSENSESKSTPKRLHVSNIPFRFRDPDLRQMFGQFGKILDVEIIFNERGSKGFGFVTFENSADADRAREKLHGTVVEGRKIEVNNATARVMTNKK
Sequence	RBNS enrichment (R)
CUCUAGCCCCCAUCCAUCCUUCCCAUCUCCCAGCUAGAGGGAGAGCUGGGCUUUGGACAGAAAAGAGAAGGGGCUGGAGCAGACAGAGCACAGGACCUGUCCCUGUGAGC	0.356
UGCCAAAGGCAAGACACCUAUAGUUGAGCUGUAUUUUGGGGGAUUGGGUGAGGAAGGACUUCUGAUCUUAUCUCAACAAAAAACUGGCCAGUAUUUUUGUUAAUGUAAAG	0.358
GGGAGCCCCACGCUUCAGGAGUAGACUAGAGCCACCUCACUUGUGUUCCGUGGGGUUACAUUUGCUUAAGGAUACACCUUACUUUUUAAUAAAUGGUUUUGAUUGUUCAA	0.402
GUUCUUGUCUUGAGUCGACUCAAUUUAGCCCAAGUGCUGAAACAAGAAAUGUCAUUUUUUUCAUCAAAGACACCAGGGCAGAUUUUUAAGUAAAGAAAGACAAUUGGACC	0.409
GAUGUAUGCCCCACCCCCUCCUCCUCCGCCUCCCAUGGACCCUUCUAACUUUGUCACCAUGAUGGGCAUGGGGGUGGCGGGCAUGCCGCCCUUCGGGAUGCCUCCAGCUC	0.588
CUGCUCAGAGUGCCUCUGGUUUCUUUUCAAAUUGUGGGGGGAAGGAUUAAAAACUUCAAAUGAUGGAAAAAGAGAUCUCUUGUGAAACGAAACGCCCCGUGUUAAUAACU	0.843
UCUUGCCUGCAGUGUGUGUGGCAGCAGCCCAUGUGCCUUUACCUGUUGUCAAACUUGCAAGCAUUUAUUUGUCUUUAUGACUGUCAUGGGGACUGAGGUUCUUCAGAGAA	0.631
CUAAUUGCCAUGUAUAGUAUGUUCGGUUAGAUAACUCACUGUAAACAGACUGUAACUGCCAGGCAGCGCUUAUAAAUCAACCUAACAUUUAUAAGAUUUCCUCUGACUUG	0.301
GCCAUGGCCUGCACCGUGGCGGUGGAAGAGAGCAUAGCACAUCACUACAACAACCAGAUCAGGACGCUGAUGGAGGAGGACCCUGAAAAAUACGAGGAACUUCUUCAGGU	0.228
CCACCAGUCACACAUUUGGAAUGUAGAUUCCAAAGACAGAAAAGAUAAAGGGUUUCCCAAGGGUAGACACCUUGACCAUCCUGAAGUAUGGGUGCUGUACCUGUUCCAGA	0.351
UCCACUUCUACCGCCUGUGUGACUGGCUGCCCUCCUGAGGCAGCACCACACCAGGGACCAGGGGUGCCCAGGCACCCCCCAACACUGGAUGCAAUGGUGUUACACUGGAG	0.539
GCCUCCAGCUGCCCGUAACCACCGAUCUGGUCAAAAGCUGGAGGGGUCAGGGUGGAACAGGGACAGUUUGGUGGUUGCGGGGCCCUGACUCCCUGGGCUCCCCCCUGCCU	0.82

Set 3
Target: Protein C-ets-1 (ETS1, Homo sapiens, UniProt P14921, residues 1-441, Y397A, full length assumed)
UniProt P14921, sequence (whole entry, unmodified, looked up): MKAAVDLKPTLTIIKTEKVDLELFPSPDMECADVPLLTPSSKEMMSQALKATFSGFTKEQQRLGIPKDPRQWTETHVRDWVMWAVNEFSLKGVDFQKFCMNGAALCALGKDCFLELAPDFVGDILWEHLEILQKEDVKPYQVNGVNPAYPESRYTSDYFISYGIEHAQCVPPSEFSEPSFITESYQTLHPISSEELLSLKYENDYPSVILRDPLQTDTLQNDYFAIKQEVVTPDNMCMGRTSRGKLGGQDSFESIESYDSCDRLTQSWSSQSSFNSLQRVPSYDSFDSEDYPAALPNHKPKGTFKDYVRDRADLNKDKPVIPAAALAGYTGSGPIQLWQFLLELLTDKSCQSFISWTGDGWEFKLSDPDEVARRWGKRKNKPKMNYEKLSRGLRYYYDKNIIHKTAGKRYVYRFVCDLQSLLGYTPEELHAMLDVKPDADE
Method: protein-binding microarray
Form: double-stranded DNA, one strand shown
Medium: in vitro
Concentration: not given
Notes: k-mer, scored over probes, only values ≥0.25
Reading: higher = stronger binding
Sequence	E-score
GACAAACA	0.305
ACATGTCG	0.259
CTTTTGTA	0.276
ACTTCCTC	0.327
ACAACCAT	0.256
CGGACAAC	0.296
TAGTGACA	0.292
ATTGTCAG	0.366
ATTGCCGA	0.276
TATGTCAA	0.358
GATGACAA	0.339
TGACAACA	0.292
AATTGGCG	0.364
ATTACAAC	0.275
AACAAACA	0.296
TATGGGGA	0.282

Set 4
Target: RING finger protein unkempt homolog, zinc fingers 1-6, GST-SBP tag (UNK, Homo sapiens, UniProt Q9C0B0, residues 30-357)
Method: RNA Bind-n-Seq
Form: RNA
Medium: in vitro
Concentration: not given
Notes: RNA with constant flanks, ends assumed
Reference: input RNA pool
Reading: higher = stronger binding
Constant ends, left off below: GGGAGUUCUACAGUCCGACGAUC … CAACAGAGGAUUGAGCAUCA
Construct (chain): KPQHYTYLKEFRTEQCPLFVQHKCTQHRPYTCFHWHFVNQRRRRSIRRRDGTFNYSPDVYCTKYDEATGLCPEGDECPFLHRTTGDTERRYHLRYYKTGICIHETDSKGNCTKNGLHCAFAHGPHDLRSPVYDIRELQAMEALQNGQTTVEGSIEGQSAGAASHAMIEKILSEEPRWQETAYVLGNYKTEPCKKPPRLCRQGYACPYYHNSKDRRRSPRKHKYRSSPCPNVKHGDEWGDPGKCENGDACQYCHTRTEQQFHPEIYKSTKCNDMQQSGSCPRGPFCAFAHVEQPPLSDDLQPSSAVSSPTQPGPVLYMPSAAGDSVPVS
Sequence	bound/input enrichment [ratio]
AUAUUUCAUAUUGCAAAGAUGUUUACAAGUAUUUUAAUUUAAGUUCAGUGAACUUUUUUGCCGCUGGGUUAAAUCUUUUUAUUUUAGUAUGGCCUUAUGGCAAAGAACACUGUAUUAUUU	2.23
GAAACAAGAUGGCGGGUUCGUGGUGAGAAGCCGUCAAGCAGGAGUAGAAAUUGGUAUGCUCCGAAGCAGAUUCUAAAAGCAGUUUCUCUUCAGAACAUCUUUUUUCAUACCACUUGAUAA	0.211
AUCCCAGAGAACGCCAUAUUCGGUCCCUGUGUACUGAGCCAUACUUCCCUGUAUGACAGCACCGCCUUCGUAGCCCUCAAGUCCACGGACAAGAGAACAGUACCUUACAUCUUCCGGGUA	0.245
AUGAACUUGAGGUUCCUUGAAUUUGCGAGGUGUGGAAAGACUACUUGACUGUCUGUCCAGCUCCGCUGUUAUGUUUUUUGGGGGGGAGGGGUGAUGUGUUAAGAGUGAGUGGUACACUGG	0.444
UGCACAGACCUCCUGAAUAAGGCCAACACGUAUGCAGAACAACAUUUUGCAGAUGUCGUACUCCGUGAAGAGUUUCUUAACCUCGGCAUCGAGCAGGUGUGCAGCUUAAUCUCCAGUGAU	0.079
UCAUUGCCCUCAACAUGAAGACUGCCAUAUUCCAAGUCACAUUAUUUUACCAAUGGAAUUACCGAAUUAACAGUAUUUUAAAUUACGUUUAUAACACUGCAGAGACCUUAAGUGCUAAAC	0.315
AUGGAACAAGGAAAAUAAGGCCUAAGCCAGCAUCCCCAGGUUGCCACAGCCCAUCCUUCACCGCAGGAAAAUAAGGCCUAAGCCAGCAUCCCCAGGUUGCCACAGCCCAUCCUUCAAGCA	0.116
GUAAAGGAAGAUGAAGAAGAAGUUUCAGAUAAGGGCAGUGAUUCUGAAGAAGAAGAAACCAACCGAGAUUCCCAAAGUGAGAAAGAUGAUGGUAGUGACAGAGACUCUGAUAGAGAGCAA	0.723
AACAUUUCUACUCUACCAGAGAGUCUUUUAUCCAGUCUUGUAAAAUUGAAUAGCUUGACCUCCGCCCGAAAUUGCUUCCAGUUAUAUCCAGUGGGAGGUCCAUCUCAGUUUUCCACCAUU	0.209
AAUCCUCAACUUGUUCUAGCUUGUGAUCCCUCAAAGUUGGGUCAUACGUUAGUGCCCGAUACCCGAAAUUUUCACUUUUCCACUGAUCAGAGAGACAGACAUUAAAAACAAAAAUAGAAG	0.947
UCUCCUGUAAUCACUUUUGGAGGGCUGCUUGGAGAAGCUACAGAAGGCAGAAUAAGUGCAACCGAGUCUCUUUUUGGAGCAUCAUUAACUGGGAUUGCCUAUUCAUUGUUUGCUGGGCAA	0.2

Set 5
Target: Sal-like protein 4, full length isoform A (SALL4, Homo sapiens, UniProt Q9UJQ4, residues 1-1053)
UniProt Q9UJQ4, sequence (whole entry, looked up): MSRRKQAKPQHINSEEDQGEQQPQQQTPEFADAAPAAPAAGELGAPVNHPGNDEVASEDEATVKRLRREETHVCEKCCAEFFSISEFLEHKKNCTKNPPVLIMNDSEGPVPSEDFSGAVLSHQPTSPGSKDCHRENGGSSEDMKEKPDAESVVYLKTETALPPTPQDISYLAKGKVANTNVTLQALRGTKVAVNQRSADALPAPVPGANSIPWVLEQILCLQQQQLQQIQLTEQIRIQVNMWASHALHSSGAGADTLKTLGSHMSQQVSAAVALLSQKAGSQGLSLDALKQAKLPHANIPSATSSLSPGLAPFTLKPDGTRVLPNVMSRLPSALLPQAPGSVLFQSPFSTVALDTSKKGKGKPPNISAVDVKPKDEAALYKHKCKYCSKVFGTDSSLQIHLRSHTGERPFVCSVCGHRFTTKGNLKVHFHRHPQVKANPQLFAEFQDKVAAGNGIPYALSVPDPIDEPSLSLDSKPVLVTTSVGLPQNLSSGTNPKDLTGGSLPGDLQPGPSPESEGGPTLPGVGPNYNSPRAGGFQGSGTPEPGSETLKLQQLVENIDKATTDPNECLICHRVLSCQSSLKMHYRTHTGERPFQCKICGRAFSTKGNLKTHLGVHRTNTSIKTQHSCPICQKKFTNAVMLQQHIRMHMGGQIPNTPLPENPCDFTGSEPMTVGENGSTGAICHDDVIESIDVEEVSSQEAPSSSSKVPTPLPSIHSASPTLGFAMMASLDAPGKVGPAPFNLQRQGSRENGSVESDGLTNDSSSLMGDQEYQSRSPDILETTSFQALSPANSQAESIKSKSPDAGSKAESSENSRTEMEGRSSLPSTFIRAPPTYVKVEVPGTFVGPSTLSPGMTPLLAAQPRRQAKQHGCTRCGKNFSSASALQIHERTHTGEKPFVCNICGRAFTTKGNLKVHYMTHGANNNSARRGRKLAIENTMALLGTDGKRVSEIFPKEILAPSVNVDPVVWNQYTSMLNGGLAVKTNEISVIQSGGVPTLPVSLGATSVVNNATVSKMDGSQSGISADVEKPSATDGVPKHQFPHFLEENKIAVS
Method: universal PBM
Form: double-stranded DNA, one strand shown
Medium: in vitro
Concentration: 600 nM
Notes: 8-mer, flanks averaged, mean of replicates
Reading: higher = stronger binding
Sequence	E-score
ACGGCTAC	-0.189
AGGATCGG	-0.224
GTCGGTTA	0.0144
CAAGAGCC	-0.167
ATACACAA	0.33
ATTGGAAA	0.213
CAGAATAC	0.202
ACTCGGTC	-0.205
GACTGTCC	-0.197
CATCAGCA	0.0411
GAATGCAC	0.0595
ATTAAACC	0.237
GCCAGGCA	-0.223
CCTCATGA	0.0022
CACTGCCA	-0.065
TTGACCAA	0.0349
CACACTTA	0.154
ACACGGAG	-0.0435
ATCTAGCA	0.101
TAATAGCA	0.208

Some of these lines once more (set 1):
Modification	mean fluorescence intensity [a.u.]
2'F-ANA at 1 2 3 8 9 12	516
2'F-ANA at 1 3 5 6 9 10 11 14	48.9
2'F-ANA at 2 3 5 8 9 11 14 15	51.1
2'F-ANA at 2 5 8 10 12 13 14	63
2'F-ANA at 1 6 7 8 12 13 14	73.5
2'F-ANA at 1 4 6 8 10	73
2'F-ANA at 1 3 6 9 10 12 14	63.3
2'F-ANA at 1 2 4 7 8 14	63.3
